Results from different studies.
Lines come from different studies, so protocols differ. “And” joins repeats or separate records; there may be more than shown. ± marks the error that the study gave. Square brackets hold non-standard residues; d marks the D form. Ends that are not written are not given here.
Cytochrome P450 2A13: Cytochrome P450 2A13 (Homo sapiens, UniProt Q16696)
Sequence of UniProt Q16696 (whole entry, looked up): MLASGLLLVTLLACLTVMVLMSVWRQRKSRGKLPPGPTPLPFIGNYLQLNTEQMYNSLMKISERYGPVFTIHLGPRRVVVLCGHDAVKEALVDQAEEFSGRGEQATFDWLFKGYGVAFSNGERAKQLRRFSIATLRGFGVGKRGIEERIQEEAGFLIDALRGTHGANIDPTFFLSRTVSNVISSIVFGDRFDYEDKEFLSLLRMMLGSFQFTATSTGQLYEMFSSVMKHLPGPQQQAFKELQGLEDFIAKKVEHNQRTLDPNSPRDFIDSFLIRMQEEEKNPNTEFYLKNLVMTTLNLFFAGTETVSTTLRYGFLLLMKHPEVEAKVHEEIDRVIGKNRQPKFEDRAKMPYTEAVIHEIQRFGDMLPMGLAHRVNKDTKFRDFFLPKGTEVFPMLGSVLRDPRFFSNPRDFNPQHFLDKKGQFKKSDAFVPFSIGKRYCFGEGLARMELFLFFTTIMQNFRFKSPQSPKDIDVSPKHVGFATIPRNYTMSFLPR
Sequence of UniProt P62577 (whole entry, looked up): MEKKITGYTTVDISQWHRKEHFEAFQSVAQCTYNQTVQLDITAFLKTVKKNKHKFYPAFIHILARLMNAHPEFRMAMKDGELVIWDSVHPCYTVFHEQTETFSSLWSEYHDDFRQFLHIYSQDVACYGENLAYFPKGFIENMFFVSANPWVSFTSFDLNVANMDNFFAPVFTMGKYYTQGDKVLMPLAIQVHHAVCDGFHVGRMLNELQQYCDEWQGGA
Sequence of UniProt P11509 (whole entry, looked up): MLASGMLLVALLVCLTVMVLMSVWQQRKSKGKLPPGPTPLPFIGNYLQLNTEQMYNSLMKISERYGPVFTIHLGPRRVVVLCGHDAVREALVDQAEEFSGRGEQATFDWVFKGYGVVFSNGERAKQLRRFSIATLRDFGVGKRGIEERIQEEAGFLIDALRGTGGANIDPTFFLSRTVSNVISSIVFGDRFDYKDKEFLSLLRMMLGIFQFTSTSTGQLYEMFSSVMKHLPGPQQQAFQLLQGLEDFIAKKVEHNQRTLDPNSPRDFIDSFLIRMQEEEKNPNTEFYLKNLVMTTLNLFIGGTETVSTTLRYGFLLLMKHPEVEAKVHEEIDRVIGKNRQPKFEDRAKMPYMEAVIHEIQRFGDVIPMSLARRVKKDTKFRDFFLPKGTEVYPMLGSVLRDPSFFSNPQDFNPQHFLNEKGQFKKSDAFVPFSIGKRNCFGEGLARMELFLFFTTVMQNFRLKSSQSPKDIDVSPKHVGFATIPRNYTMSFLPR
Sequence of UniProt P14779 (whole entry, looked up): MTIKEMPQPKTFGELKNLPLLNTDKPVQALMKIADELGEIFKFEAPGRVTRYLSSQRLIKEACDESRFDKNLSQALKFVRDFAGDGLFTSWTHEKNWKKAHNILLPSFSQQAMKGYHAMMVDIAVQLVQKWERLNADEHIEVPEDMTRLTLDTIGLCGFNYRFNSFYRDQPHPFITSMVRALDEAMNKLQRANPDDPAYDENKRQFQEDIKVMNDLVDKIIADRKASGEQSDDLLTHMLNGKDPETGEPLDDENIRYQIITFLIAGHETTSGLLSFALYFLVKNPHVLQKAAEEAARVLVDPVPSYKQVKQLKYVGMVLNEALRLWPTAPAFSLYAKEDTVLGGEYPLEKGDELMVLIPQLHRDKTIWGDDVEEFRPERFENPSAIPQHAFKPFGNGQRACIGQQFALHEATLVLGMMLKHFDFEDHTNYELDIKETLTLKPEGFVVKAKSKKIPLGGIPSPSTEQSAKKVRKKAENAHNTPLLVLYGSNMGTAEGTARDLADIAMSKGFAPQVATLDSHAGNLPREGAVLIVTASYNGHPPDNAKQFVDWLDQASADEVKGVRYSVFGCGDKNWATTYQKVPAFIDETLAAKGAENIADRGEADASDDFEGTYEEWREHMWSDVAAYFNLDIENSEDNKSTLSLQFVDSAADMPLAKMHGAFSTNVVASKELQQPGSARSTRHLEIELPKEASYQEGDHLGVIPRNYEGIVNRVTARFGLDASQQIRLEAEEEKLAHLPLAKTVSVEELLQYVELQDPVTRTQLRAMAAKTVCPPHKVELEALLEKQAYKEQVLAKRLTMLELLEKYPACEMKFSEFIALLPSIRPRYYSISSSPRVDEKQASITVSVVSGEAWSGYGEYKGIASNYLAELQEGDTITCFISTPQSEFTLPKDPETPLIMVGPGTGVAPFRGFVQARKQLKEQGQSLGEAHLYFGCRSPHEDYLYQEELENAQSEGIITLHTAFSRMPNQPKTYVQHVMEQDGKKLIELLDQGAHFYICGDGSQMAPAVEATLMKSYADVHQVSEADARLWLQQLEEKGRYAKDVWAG
Sequence of UniProt Q9Y468 (whole entry, looked up): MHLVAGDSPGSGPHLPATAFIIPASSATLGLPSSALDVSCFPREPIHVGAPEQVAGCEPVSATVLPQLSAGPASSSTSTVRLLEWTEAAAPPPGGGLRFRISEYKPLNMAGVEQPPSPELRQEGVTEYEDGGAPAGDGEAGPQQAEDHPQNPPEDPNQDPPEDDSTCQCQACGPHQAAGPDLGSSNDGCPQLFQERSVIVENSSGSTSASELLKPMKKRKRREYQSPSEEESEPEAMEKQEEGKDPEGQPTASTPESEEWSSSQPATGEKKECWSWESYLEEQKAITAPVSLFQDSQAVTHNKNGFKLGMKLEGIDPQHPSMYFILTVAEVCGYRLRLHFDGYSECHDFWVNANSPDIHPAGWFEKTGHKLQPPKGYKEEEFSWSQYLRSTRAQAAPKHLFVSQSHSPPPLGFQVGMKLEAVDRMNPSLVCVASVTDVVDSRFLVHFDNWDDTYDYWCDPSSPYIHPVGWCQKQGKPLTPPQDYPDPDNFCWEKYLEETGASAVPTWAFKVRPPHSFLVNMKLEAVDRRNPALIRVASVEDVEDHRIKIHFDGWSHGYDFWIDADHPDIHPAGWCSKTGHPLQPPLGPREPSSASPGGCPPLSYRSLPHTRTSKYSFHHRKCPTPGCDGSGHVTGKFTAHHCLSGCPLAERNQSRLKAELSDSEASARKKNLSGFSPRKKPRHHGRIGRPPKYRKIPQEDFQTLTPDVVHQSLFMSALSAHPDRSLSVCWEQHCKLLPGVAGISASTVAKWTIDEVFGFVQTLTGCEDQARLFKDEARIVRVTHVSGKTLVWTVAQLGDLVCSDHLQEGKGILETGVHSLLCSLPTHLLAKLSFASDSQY
Sequence of UniProt P63096 (whole entry, looked up): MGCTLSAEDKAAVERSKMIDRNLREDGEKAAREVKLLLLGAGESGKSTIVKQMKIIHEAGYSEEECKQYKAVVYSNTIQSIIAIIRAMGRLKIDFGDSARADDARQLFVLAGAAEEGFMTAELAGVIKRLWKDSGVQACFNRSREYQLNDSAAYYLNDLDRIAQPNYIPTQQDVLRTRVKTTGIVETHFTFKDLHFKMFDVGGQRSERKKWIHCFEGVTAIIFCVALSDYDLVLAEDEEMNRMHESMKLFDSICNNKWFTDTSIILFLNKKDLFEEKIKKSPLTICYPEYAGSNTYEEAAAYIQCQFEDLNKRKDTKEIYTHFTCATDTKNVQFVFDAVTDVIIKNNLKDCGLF
Sequence of UniProt P40416 (whole entry, looked up): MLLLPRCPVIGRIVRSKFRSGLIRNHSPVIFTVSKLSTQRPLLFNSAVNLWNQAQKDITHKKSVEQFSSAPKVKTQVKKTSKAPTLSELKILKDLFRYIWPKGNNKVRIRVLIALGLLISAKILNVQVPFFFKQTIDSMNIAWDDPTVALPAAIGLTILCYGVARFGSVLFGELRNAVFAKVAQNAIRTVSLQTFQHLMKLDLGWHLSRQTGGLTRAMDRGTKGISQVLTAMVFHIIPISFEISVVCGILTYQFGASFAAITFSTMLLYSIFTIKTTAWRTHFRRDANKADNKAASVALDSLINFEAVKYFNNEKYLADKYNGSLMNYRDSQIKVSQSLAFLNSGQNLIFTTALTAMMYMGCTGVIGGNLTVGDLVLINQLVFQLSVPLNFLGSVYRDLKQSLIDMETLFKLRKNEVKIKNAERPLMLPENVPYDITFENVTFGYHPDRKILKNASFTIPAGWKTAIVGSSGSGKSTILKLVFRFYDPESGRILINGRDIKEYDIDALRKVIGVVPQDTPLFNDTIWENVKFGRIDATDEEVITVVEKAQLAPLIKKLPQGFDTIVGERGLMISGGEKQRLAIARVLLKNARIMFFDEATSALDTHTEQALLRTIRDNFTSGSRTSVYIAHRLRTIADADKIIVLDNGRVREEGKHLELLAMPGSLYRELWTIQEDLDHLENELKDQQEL
Sequence of UniProt Q9BYF1 (whole entry, looked up): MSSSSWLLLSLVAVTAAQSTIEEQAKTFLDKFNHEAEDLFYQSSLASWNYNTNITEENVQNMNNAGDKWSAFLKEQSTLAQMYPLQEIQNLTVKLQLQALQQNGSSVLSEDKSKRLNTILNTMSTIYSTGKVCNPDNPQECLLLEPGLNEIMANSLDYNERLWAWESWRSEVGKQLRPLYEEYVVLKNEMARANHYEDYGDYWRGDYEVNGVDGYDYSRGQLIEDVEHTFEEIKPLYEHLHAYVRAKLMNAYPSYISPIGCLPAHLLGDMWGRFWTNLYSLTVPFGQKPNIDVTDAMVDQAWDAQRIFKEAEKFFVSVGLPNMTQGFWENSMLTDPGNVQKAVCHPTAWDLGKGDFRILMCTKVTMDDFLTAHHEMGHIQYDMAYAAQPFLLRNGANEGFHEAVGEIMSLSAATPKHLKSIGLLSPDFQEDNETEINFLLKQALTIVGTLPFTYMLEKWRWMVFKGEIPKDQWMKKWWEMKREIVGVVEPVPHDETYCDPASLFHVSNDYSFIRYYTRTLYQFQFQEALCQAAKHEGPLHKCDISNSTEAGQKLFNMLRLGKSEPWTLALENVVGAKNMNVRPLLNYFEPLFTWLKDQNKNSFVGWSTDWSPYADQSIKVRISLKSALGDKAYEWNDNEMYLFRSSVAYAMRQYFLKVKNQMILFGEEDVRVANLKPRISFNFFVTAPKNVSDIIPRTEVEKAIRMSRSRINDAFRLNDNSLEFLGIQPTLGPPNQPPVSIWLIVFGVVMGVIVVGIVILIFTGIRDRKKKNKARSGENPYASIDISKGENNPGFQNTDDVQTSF

`C=C(C)[C@@H]1CCC(C)=C[C@H]1c1c(O)cc(CCCCC)cc1O` gave a Kd of 0.57 ± 0.006 µM (Fatty acid-binding protein, liver (FABP1, Homo sapiens, UniProt P07148); binding, DAUDA displacement; with: DAUDA 0.5 µM).
`CC1=C[C@H](O)CC(C)(C)[C@H]1/C=C/C(C)=C/C=C/C(C)=C/C=C/C=C(C)/C=C/C=C(C)/C=C/C1=C(C)C[C@@H](O)CC1(C)C` has a Kd of 1.11 µM (Albumin (ALB, Homo sapiens, UniProt P02768); binding, SPR).
`O=C(N[C@H](CO)[C@H](O)c1ccc([N+](=O)[O-])cc1)C(Cl)Cl` gave a Kd of ~60 µM and 60 µM (Chloramphenicol acetyltransferase (cat, Escherichia coli, UniProt P62577); ligand, native ESI-MS; first ligand binding, gas phase, with: 200 mM ammonium acetate).
For `CCCCCCCC[N+](CC)(CC)CCO`, the Kd was 12.7 µM (potassium channel; steady-state block; Doryteuthis pealeii; internal application, with: membrane potential +100 mV).
`CC#Cc1ccc2c(ccc3ccccc32)c1` has a Kd of 3.9 µM (Cytochrome P450 2A13; binding, absorbance; pH 7.4).
The Kd of `LKKLL[Orn]LLKKLLKLAG (Orn6; Orn = NCCC[C@H](N)C(=O)O)` is reported as 0.0061 ± 0.0003 µM (HCV IRES domain IV hairpin RNA; binding, competitive fluorescence anisotropy; pH 7.4, 20 °C, with: rhodamine-Rev probe).
With `C=CC1=C(C)c2cc3[nH]c(cc4nc(cc5[nH]c(cc1n2)c(C)c5C=C)C(C)=C4CCC(=O)O)c(CCC(=O)O)c3C.[Fe+3]` the Kd was 0.204 ± 0.0204 µM (Kelch protein K13 (Plasmodium falciparum, UniProt Q8IDQ2, C580Y)).
With `CC(=O)N[C@H]1C(O)O[C@H](CO)[C@@H](O[C@@H]2O[C@H](CO)[C@H](O)[C@H](O)[C@H]2O[C@@H]2O[C@@H](C)[C@@H](O)[C@@H](O)[C@@H]2O)[C@@H]1O` (stereo partly shown) the Kd was 32 µM (Lectin (Erythrina crista-galli, UniProt P83410); BLI competition; solution Kd, with: LacNAc-biotin biosensor).
`[2Fe-2S](GS)4` gave a Kd of 0.91 ± 0.06 µM (ATM1 (Saccharomyces cerevisiae, UniProt P40416); ATPase stimulation, activator; wild type, with: MgATP).
With `CC[N+](CC)(CC)CC(=O)Nc1c(C)cccc1C` the Kd was 25500 µM (sodium channel (rat brain), batrachotoxin-modified; open channel block, blocker, planar lipid bilayer, single channel; high-Kd period, 0 mV).
`CSCC[C@H](NC(=O)[C@H](CC(C)C)NC(=O)[C@H](Cc1ccccc1)NC(=O)[C@H](CC(=O)O)NC(=O)[C@H](Cc1ccc(O)cc1)NC(=O)[C@H](Cc1c[nH]c2ccccc12)NC(=O)[C@@H](NC(=O)[C@@H](NC(=O)[C@H](CCCNC(=N)N)NC(=O)[C@@H](N)CO)C(C)C)[C@@H](C)O)C(=O)N[C@@H](CCC(=O)O)C(=O)N[C@@H](CC(=O)O)C(=O)N[C@H](C(=O)N[C@@H](CCCCN)C(=O)N[C@@H](CO)C(=O)N[C@@H](CCCNC(=N)N)C(=O)O)[C@@H](C)O` gave a Kd of 0.345 ± 0.04 µM (Guanine nucleotide-binding protein G(i) subunit alpha-1, GDP-bound (GNAI1, Homo sapiens, UniProt P63096); binding, microscale thermophoresis).
The Kd of `CSCC[C@H](NC(C)=O)C(=O)N[C@@H](C)C(=O)N[C@@H](C)C(=O)N[C@H](C(=O)N[C@@H](C)C(=O)NCC(=O)N[C@@H](CC(C)C)C(=O)N[C@@H](Cc1ccc(O)cc1)C(=O)NCC(=O)N[C@@H](CC(C)C)C(=O)NCC(=O)N[C@@H](CCCCN)C(=O)N[C@@H](CCCCN)C(=O)N[C@@H](CCCNC(=N)N)C(=O)N[C@@H](CCC(N)=O)C(=O)N[C@@H](Cc1c[nH]cn1)C(=O)N[C@@H](CCCNC(=N)N)C(=O)N[C@@H](CCCCN)C(=O)N[C@@H](CCCCN)C(=O)N[C@@H](CCC(N)=O)C(N)=O)C(C)C` is reported as 89 µM (Kcnma1 (Mus musculus, UniProt Q08460, E386N/E389N); ion current, blocker, inside-out patch clamp; E321N/E324N double mutant, 120 mV).
With `CC[C@H](C)[C@@H]1NC(=O)[C@H](CC(N)=O)NC(=O)[C@H](C)NC(=O)[C@@H](NC(=O)[C@H](CO)NC(=O)[C@H](CCC(N)=O)NC(C)=O)CSCc2cccc(c2)C[S+](C)CC[C@@H](C(=O)N[C@@H](Cc2ccc(O)cc2)C(=O)N[C@@H](CCCCN)C(=O)N[C@H](C(=O)O)C(C)C)NC1=O` (stereo partly shown) the Kd was 16.9 µM (Regulator of G-protein signaling 3, PDZ domain (Rgs3, Mus musculus, UniProt Q9DC04); fluorescence polarization; 1 h, pH 7.4, 25 °C, with: FAM-labelled peptide tracer).
For `C[C@@H]1O[C@@H](OC[C@H]2O[C@@H](Oc3c(-c4ccc(O)c(O)c4)oc4cc(O)cc(O)c4c3=O)[C@H](O)[C@@H](O)[C@@H]2O)[C@H](O)[C@H](O)[C@H]1O`, the Kd was 82.4 µM (Angiotensin-converting enzyme 2 (ACE2, Homo sapiens, UniProt Q9BYF1); binding, SPR).
`CC[C@H](C)[C@H](NC(=O)[C@@H]1CCCN1C(=O)[C@H](CC(C)C)NC(=O)[C@H](Cc1ccccc1)NC(=O)[C@H](CCC(=O)O)NC(=O)CNC(=O)[C@@H](NC(=O)[C@H](CCC(=O)O)NC(=O)[C@@H]1CCCN1C(=O)[C@H](CC(=O)O)NC(=O)[C@H](CC(C)C)NC(=O)[C@H](CCC(N)=O)NC(=O)[C@H](CC(C)C)NC(=O)[C@H](CCC(N)=O)NC(=O)[C@H](C)NC(=O)[C@H](Cc1ccccc1)NC(C)=O)[C@@H](C)O)C(=O)N[C@@H](CCC(N)=O)C(=O)N1CCC[C@H]1C(=O)N[C@@H](C)C(=O)N[C@@H](CCC(N)=O)C(N)=O` has a Kd of 0.007 µM (Kelch-like ECH-associated protein 1 (KEAP1, Homo sapiens, UniProt Q14145); binding, ITC; pH 7).
`CC(=O)N[C@H](CCCNC(=N)N)C(=O)N[C@H](C)C(=O)N[C@H](CC(=O)O)C(=O)N[C@H](C)C(=O)N[C@H](CCCNC(=N)N)C(=O)N[C@H](C)C(=O)N[C@H](CC(=O)O)C(=O)N[C@H](C)C(=O)N[C@H](CCCNC(=N)N)C(=O)N[C@H](C)C(=O)N[C@H](CC(=O)O)C(=O)N[C@H](C)C(=O)N[C@H](CCCNC(=N)N)C(=O)N[C@H](C)C(=O)N[C@H](CC(=O)O)C(=O)N[C@H](C)C(N)=O` has a Kd of about 0.227 µM (chymotrypsin; fluorescence polarization; 30 min, pH 7.0, with: FITC-labelled peptide).
`CN(C)CCCC[C@H](N)C(=O)O` gave a Kd of over 250 µM (Lethal(3)malignant brain tumor-like protein 1 (Homo sapiens, UniProt Q9Y468)).
`O=c1ccn([C@H]2C[C@H](O)[C@@H](CO)O2)c(=O)[nH]1` has a Kd of 78 ± 5 µM (thyX (Thermotoga maritima, UniProt Q9WYT0)).
For `C#Cc1ccc2c(ccc3ccccc32)c1`, the Kd was 3.3 µM (Cytochrome P450 2A6 (CYP2A6, Homo sapiens, UniProt P11509); binding, absorbance; pH 7.4).
For `CC[N+](CC)(CC)CCCc1ccccc1`, the Kd was 7 µM (potassium channel; steady-state block; Doryteuthis pealeii; internal application, with: membrane potential +100 mV).
The Kd of `CCCCCCCCCCCCCCCC(=O)NCC(=O)O` is reported as 0.32 ± 0.01 µM (Bifunctional cytochrome P450/NADPH--P450 reductase, heme domain (cyp102A1, Bacillus megaterium, UniProt P14779); substrate binding, substrate, UV-vis spectral titration; pH 7.4, room temperature, wild-type heme domain).
For `CCCCCCC[N+](CC)(CC)CC`, the Kd was 17.6 µM (potassium channel; steady-state block; Doryteuthis pealeii; internal application, with: membrane potential +100 mV).
For `c1ccc2c(CN3CCN(Cc4c[nH]c5ccccc45)CC3)c[nH]c2c1`, the Kd was 1.89 µM (acetylcholine binding protein (Bulinus truncatus); binding, scintillation proximity; with: 5 nM [3H]epibatidine).
With `Nc1ncnc2c1ncn2[C@@H]1O[C@H](COP(=O)(O)OP(=O)(O)NP(=O)(O)O)[C@@H](O)[C@H]1O` the Kd was 253 ± 11 µM (matB (Rhodopseudomonas palustris, UniProt Q6ND88, C106A/K488A/Q457C/R286C); binding, fluorescence titration; pH 7.0, 20 °C).
For `c1ccc(-c2ccccc2)cc1`, the Kd was 0.88 µM (Cytochrome P450 2A13; binding, absorbance; pH 7.4).

A few entries again:
For `CCCCCCCC[N+](CC)(CC)CCO`, the Kd was 12.7 µM (potassium channel; steady-state block; Doryteuthis pealeii; internal application, with: membrane potential +100 mV).
`CC#Cc1ccc2c(ccc3ccccc32)c1` has a Kd of 3.9 µM (Cytochrome P450 2A13; binding, absorbance; pH 7.4).
